Published values of several laboratories.
Every numbered part comes from another study and shows a few of its results, in no order. Positions count from the first letter of the parent shown.

Series 1 — method: protein-binding microarray; molecule type: double-stranded DNA, one strand shown; matrix: in vitro; concentration: 2200 nM top; setting: 60-bp whole probe; added: salmon DNA 0.4 mg/ml; reference: random background probes; direction: higher = stronger binding; endpoint: fitted relative affinity; shared flanks, not repeated: GCCTAGCAC … GTCTTGATTCGCTTGACGCTGCTG
Target: Interferon regulatory factor 7, full length, phosphomimetic (IRF7, Homo sapiens, UniProt Q92985, residues 1-503, S471D/S472D/S475D/S476D/S477D/S483D/S484D/S487D)
Chain of UniProt Q92985 (whole entry, unmodified, looked up): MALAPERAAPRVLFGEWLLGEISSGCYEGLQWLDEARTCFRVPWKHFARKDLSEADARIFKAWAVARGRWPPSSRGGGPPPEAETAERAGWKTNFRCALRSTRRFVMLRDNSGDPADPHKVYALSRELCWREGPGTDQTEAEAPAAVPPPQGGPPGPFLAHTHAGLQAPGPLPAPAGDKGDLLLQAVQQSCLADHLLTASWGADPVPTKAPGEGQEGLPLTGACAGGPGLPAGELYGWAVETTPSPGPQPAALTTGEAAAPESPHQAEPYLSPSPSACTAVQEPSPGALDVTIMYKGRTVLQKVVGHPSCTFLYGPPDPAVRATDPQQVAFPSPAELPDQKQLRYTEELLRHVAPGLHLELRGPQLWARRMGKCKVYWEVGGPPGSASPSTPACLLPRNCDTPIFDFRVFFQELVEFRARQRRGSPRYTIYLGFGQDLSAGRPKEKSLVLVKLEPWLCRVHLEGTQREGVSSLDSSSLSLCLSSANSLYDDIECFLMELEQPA
CCTGTAATCCCAGCTACTCAGTGCTAG: 0.667 z-score
GTCGGTTCCCTTTTCCTGACGTGCTAG: 3.66 z-score
GACGGTATCGGTCTCGGAACGTGCTAG: 0.304 z-score
TTAGGTATCCTACTGCTCTAGTGCTAG: 0.545 z-score
TTAGGTCTCCTTCTCCGTTAGTGCTAG: 0.937 z-score
TTAGGAATGCTTTTCCTTTAGTGCTAG: 1.03 z-score
GACGAACGGAGACTGGAGACGTGCTAG: -0.458 z-score
TCAAAGCTTCCTCTCTGACTGTGCTAG: 0.743 z-score
TTAGGTTTCGGGTATCGGATAGTGCTA: 6.28 z-score
GACGGGCTGGACTTTCGGGACGTGCTA: 1.65 z-score
TTCGGTTTCGGGTTTCGGTTAGTGCTA: 12.3 z-score
GACGGTTTAGGTTTCGGGACGTGCTAG: 3.37 z-score
GACGGTTTCGACTATCGGGATGTGCTA: 3.45 z-score
TTAGGTCTCGGTATAGGTTAGTGCTAG: 0.178 z-score
TTAGGACTGGGGTAGCGGTTAGTGCTA: -1.03 z-score
GACGGTTTCGACTATCGGGAGGTGCTA: 3.2 z-score

Series 2 — method: DHFR PCA, deep sequencing; matrix: yeast; added: (+)-ABA 1.4 µM; reference: wild-type fitted maximum; direction: higher = stronger binding; endpoint: relative binding score
Target: ABI1, truncated, D143A, DHFR fusion (Arabidopsis thaliana)
Setting: methotrexate growth selection, single substitutions
Parent: PYL1, truncated, DHFR fusion (Arabidopsis thaliana); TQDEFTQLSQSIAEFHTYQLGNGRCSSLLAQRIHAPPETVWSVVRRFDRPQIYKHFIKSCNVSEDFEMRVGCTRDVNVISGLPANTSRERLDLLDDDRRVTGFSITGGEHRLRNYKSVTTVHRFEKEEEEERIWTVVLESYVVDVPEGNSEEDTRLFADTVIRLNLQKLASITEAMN; partner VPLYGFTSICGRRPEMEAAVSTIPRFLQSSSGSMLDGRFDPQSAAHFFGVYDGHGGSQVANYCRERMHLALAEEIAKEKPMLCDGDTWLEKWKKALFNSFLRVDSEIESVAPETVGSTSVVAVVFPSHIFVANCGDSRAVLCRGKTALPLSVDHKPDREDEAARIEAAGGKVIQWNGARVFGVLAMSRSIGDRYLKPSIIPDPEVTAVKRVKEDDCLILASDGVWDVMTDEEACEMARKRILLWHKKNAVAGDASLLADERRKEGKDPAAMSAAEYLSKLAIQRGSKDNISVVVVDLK
C60I: 10.1%
T173I: 19.5%
Q10E: 79.2%
P37F: -3.67%
S80F: 39.8%
P83S: 19.5%
G23H: 40.6%
G148T: 2.96%
E128S: 65.2%
T73S: 29.7%
T160V: 5.52%
S26P: 2.57%
F66M: 22.3%
F124L: 73%
D75F: 61.5%

Series 3 — target: CCNE1, cyclin fold, Cln2 fusion (human); method: yeast growth competition, sequencing; matrix: yeast; setting: strong parent motif; reference: not given; direction: higher = stronger binding; endpoint: normalised enrichment score
Parent: NPAT docking peptide (human); PCHRRVLCFDSTT; partner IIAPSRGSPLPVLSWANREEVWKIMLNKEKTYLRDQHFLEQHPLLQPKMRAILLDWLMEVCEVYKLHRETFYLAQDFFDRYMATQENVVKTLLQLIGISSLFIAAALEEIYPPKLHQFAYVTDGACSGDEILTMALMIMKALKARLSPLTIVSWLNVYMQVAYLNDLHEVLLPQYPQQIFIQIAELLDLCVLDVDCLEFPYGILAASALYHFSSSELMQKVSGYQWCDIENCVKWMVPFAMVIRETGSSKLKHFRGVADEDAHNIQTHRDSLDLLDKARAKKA
F9L: 0.031
R5A: 0.259
H3A: 3.45
D10A: 1.24
S11A: 1.01
C8A: 0.919
V6A: 0.877

Series 4 — method: RNA Bind-n-Seq; molecule type: RNA; matrix: in vitro; concentration: not given; reference: input RNA pool; direction: higher = stronger binding; endpoint: bound/input enrichment
Target: RING finger protein unkempt homolog, zinc fingers 1-6, GST-SBP tag (UNK, Homo sapiens, UniProt Q9C0B0, residues 30-357)
Setting: RNA with constant flanks, human-mouse chimeric sites, ends assumed
Shared flanks, not repeated: GGGAGUUCUACAGUCCGACGAUC … CAACAGAGGAUUGAGCAUCA
Construct (chain): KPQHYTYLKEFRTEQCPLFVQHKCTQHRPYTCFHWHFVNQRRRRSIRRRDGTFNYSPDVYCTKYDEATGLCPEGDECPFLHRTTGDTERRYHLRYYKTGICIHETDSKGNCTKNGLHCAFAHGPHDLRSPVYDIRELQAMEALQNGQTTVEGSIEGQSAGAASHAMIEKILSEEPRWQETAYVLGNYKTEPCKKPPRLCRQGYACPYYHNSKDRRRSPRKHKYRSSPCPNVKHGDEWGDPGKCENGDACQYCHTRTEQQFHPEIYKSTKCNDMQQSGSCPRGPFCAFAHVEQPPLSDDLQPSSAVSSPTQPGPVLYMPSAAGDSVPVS
UAAGUCCUGUGCCAGCACUUCGCUCAUAAAGUUUUAAAUUCAAGAAAAAUAGUGUUUAUCUUUAGAAUAUUGUAUCCAAUACUUUGCCUAGUAUGUAACUCACUCUUACUGAUAAUAAAA: 24 ratio
AGAAUCUUGGGACUGUUUUACUUAAUUGGUCAUUGAUAGCUUAACAAACAUGGAGAUAAGAUUAGAAAUCUUGACAUCAACAAGUAUUAAGCAGAAAAAACCAUGGCCCAGAGUAUCCUG: 0.12 ratio
UCUGAGGUACCACUGAAAGAGACAUUAAAGAAUCAUUUGAGGGCUCUGUUCGUGCAAGAAUAGUCACUGAUCGGGAAACUGGUUCUUCCAAAGGGUUUGGUUUUGUAGACUUUAAUAGUG: 0.813 ratio
ACCAUUUUCGCGGUUCAGGCUUUGUGUGUAGUUCACUUACGGUAUUAAAUUAUUAUUGCCCUUAGUUUAAAGUAAGGAUAAUUGCAUUUAAAGAGGUUACUGAAUGUUACUCUGAAACUU: 0.305 ratio
CUCAUGGCUGCAGAAACAGGAAGUGGAAAAACUGGUGCUUUUAGUAUUCCAGUUAUCCAGAUAGUGUAUGAAACUCUGAAAGACCAACAGGAAGGAAAGAAAGGGAAAACAACUAUUAAA: 0.573 ratio
GUUGCCAGCUUCCGGUUGGCCUCCAUCCGGUUCUCUCCUGAGCUACGUGUCUCUACGCUCUCAAUCCGCCAUCCAACAAACAUGGAUGAUCAGGUAAAGUUUGUGGAGCCCAGCCGGCAG: 0.0961 ratio
GUAAUGUGUCCAUUUAAAACUUAUUUUUAUAGCUAGAUAAAUAUUGUUAGUCUUAGACAAUAGCUCACAUUUUUUGAGAAGCAUGCCCUCCCUGUCCAUUUGUCUUAUAACAUGACCCAG: 38.4 ratio
CACAGAGGAGACCUCCUGUUCCUCACGAAUUUCCGGGAGGACCCCAUCAGAGCUGGUGAAAUAGUUGUUUUUAAAGUUGAAGGAAGAGACAUUCCGAUAGUUCACAGAGUAAUCAAGGUU: 7.57 ratio
UAAAUCCUGUGCCAGCACUUCGCUCAUAAAGUUUUAAAUUCUGGACCAAUUGUGUUUGUUUCCUGAUUAUUGUAUCCAAUACUUUGCCUAGUAUGUAACUCACUCUUACUGAUAAUAAAA: 0.502 ratio
UGUGAACUGUCUCUUGAGAUCUAAAAACAAGAUGACUUUUCCUGGCACAUAUUCCAAAGCAAAGACUUUGUUACCUGCUGCUUAUUGUCUAAUUUACAGGGAUAUUUAAUUUUGUCAGGU: 0.207 ratio
CUCAUGGCUGCAGAAACAGGAAGUGGAAAAACUGGUGCAUUUAGUAUUCCCGUUAUCCAGAUAGUGUAUGAAACUCUGAAAGACCAACAGGAAGGCAAGAAAGGGAAAACAACAAUUAAA: 1.37 ratio

Series 5 — method: aptamer microarray, sandwich; molecule type: DNA with 2'F-ANA; matrix: in vitro; concentration: 200 nM; added: Cy3 exosite-II aptamer, 400 nM; direction: higher = stronger binding; endpoint: mean fluorescence intensity; oligonucleotide: GGTTGGTGTGGTTGG
Target: Prothrombin, mature alpha-thrombin (F2, Homo sapiens, UniProt P00734)
Setting: whole 15-mer aptamer, many near background
2'F-ANA at 3 5 7 13 14: 56 a.u.
2'F-ANA at 2 3 6 9 10 11 13: 294 a.u.
2'F-ANA at 1 2 5 6 8 9: 66.8 a.u.
2'F-ANA at 2 4 7 8 9 11 15: 278 a.u.
2'F-ANA at 2 3 5 7 8 11: 114 a.u.
2'F-ANA at 1 2 3 4 5 7 8 10 11 12 13: 49.6 a.u.
2'F-ANA at 1 2 3 5 6 7 8 9 11 12 13 14 15: 103 a.u.
2'F-ANA at 1 3 5 6 7 8 10 12 13 15: 55.9 a.u.
2'F-ANA at 1 6 7 10: 61 a.u.
2'F-ANA at 4 7 8 11 14: 122 a.u.
2'F-ANA at 1 2 3 4 6 9 12 14: 60.5 a.u.
2'F-ANA at 1 3 4 5 7 11 12: 107 a.u.
2'F-ANA at 1 7 8 9 11 14: 230 a.u.
2'F-ANA at 4 5 6 9 10 12: 50.8 a.u.
2'F-ANA at 1 3 4 6 7 9 12 13 14: 65.4 a.u.
2'F-ANA at 4 5 8 11: 61 a.u.
2'F-ANA at 1 7 8 9 10 12: 75.5 a.u.
2'F-ANA at 2 11 12 13 14: 242 a.u.
2'F-ANA at 1 3 5 7 9 10 12 15: 53.5 a.u.
2'F-ANA at 1 3 4 6 7 8 13 14: 72.4 a.u.
2'F-ANA at 3 4 6 7 10 12 14 15: 238 a.u.
2'F-ANA at 2 3 6 7 11 12 13 14: 336 a.u.
2'F-ANA at 3 4 7 8 9 15: 796 a.u.
2'F-ANA at 2 3 4 5 6 8 9 11 12 15: 149 a.u.
2'F-ANA at 1 4 5 6 7 9 12 13 14: 43.9 a.u.

Series 6 — method: protein binding microarray; molecule type: double-stranded DNA, one strand shown; matrix: in vitro; concentration: not given; reference: not given; direction: higher = stronger binding; endpoint: E-score
Target: Histone acetyltransferase KAT6A, both winged helices, GST fusion (KAT6A, Homo sapiens, UniProt Q92794, residues 1-181)
Setting: 8-mer, flanks averaged, mean of 2 arrays, mostly near background
Residues (chain): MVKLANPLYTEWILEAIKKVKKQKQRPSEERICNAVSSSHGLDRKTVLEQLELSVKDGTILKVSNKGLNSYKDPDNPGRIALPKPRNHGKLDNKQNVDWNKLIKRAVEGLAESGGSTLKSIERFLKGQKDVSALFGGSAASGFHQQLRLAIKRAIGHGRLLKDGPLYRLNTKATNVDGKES
AGGAATGG: -0.257
CTGTAAAC: -0.0378
ATTCTCCC: -0.265
AAGCAAGG: -0.234
GCAGCAAA: -0.102
ACACTAAA: -0.0323
GGTGAGGA: -0.126
AGCGAGTC: 0.0356
GCTCAGAC: -0.171
ACTGTTAT: -0.044
AGCTAGCG: 0.147
GCCAGAAA: -0.21
CAGGCATC: -0.252
TGGCGCAA: 0.242
AGGCAGCA: -0.227
CTCCTAGC: -0.0972
GCTGATCA: 0.0382
CAGTCAAG: -0.203
ACCGTAAG: 0.22
CAGCGTCA: 0.0302

Single results of other studies
PhoQ, residues 284 288 289 292 302 303 GLASVI — fold induction (PhoP, residues 12 14 15 18 19 IFFTR (Escherichia coli, UniProt P23836); Sort-seq, item: YFP reporter; E. coli; PhoQ-PhoP variant library, added: 10 µM Mg2+; reference: high Mg2+ state, higher = stronger signaling): 6.74
